Results collected from several papers.
A part holds a random share of what one study measured. Positions count from the first letter of the parent shown.
UniProt P35354, sequence (whole entry, looked up): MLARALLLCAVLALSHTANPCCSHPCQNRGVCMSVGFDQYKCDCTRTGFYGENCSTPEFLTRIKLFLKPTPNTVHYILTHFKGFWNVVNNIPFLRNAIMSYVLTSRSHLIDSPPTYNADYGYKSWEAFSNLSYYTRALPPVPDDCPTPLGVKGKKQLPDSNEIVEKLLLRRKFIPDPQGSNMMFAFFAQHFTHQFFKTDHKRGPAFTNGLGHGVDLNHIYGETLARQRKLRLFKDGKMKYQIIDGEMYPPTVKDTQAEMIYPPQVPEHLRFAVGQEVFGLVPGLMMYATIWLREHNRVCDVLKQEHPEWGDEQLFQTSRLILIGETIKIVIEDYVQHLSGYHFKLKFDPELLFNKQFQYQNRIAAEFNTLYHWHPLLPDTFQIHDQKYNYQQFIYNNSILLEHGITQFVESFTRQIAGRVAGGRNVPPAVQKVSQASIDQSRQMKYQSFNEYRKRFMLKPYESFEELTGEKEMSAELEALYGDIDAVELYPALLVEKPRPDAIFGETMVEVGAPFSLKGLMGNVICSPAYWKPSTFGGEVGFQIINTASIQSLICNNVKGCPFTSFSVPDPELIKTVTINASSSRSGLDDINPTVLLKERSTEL

Block 1 — target: CCNA2, cyclin fold, Cln2 fusion (human); technique: yeast growth competition, sequencing; matrix: yeast; notes: strong parent motif; baseline: not given; reading: higher = stronger binding
Starting sequence: viral docking peptide; TSVRRALFTGGSD; partner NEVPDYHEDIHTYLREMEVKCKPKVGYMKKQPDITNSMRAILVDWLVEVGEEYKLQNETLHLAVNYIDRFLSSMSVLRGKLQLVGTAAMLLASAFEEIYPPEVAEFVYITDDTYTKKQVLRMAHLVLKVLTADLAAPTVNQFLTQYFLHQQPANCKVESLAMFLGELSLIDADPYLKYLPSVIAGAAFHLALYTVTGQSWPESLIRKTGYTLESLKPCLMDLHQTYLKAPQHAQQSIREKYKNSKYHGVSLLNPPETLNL
`TSVRRALFTIGSD [G10I]`: “normalised enrichment score” 6.14.
Under “normalised enrichment score”, `TSVRKALLTGGSD [R5K F8L]` is recorded as 0.459.
Under “normalised enrichment score”, `TLVRRALFTGGSD [S2L]` is recorded as 5.6.
`TSVRRALFTGHSD [G11H]` — result for “normalised enrichment score”: 6.32.
`TSVRRSLFTGGSD [A6S]` — result for “normalised enrichment score”: 5.81.
For `TSVRRALFTGGWD [S12W]`, “normalised enrichment score” read 5.89.
`TSVRRASFTGGSD [L7S]`: “normalised enrichment score” -0.49.
`ASVRRALFTGGSD [T1A]`: “normalised enrichment score” 6.78.

Block 2 — target: vanadate, free oxyanion; technique: microfluidic competitive inhibition; matrix: in vitro, cell-free expressed; concentration: not given; reading: lower = stronger binding
Notes: derived from inhibition constants, unchanged parent 676 nM
Starting sequence: PafA, mature enzyme, eGFP fusion (Elizabethkingia meningoseptica, UniProt Q9KJX5); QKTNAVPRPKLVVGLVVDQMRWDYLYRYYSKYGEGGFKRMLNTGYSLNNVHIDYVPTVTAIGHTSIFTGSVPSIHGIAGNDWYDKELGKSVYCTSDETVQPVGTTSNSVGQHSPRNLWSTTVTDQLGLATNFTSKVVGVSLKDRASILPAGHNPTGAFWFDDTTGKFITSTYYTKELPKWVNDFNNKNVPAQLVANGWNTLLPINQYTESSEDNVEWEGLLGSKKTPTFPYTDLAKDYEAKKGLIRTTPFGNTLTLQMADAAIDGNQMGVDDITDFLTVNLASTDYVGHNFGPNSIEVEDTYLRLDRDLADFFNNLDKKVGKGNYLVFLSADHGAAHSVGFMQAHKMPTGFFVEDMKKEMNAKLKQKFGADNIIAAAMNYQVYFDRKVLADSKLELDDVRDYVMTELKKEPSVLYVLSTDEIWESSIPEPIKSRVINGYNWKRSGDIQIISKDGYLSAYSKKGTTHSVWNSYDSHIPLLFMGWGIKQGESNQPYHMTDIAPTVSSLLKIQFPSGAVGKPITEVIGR
Under “oxyanion analog dissociation constant”, `Q510V` is recorded as 800 nM.
Under “oxyanion analog dissociation constant”, `G156V` is recorded as 560 nM.
`K85V` — result for “oxyanion analog dissociation constant”: 522 nM.
`P411V`: “oxyanion analog dissociation constant” 539 nM.
`H75G`: “oxyanion analog dissociation constant” 457 nM.
`V139G`: “oxyanion analog dissociation constant” 617 nM.
`T301G` — result for “oxyanion analog dissociation constant”: 544 nM.
`V215A`: “oxyanion analog dissociation constant” 680 nM.

Block 3 — read-out: binding; technique: phage display NGS; molecule type: peptide; concentration: concentration not given; baseline: input library
Target: UDP-N-acetylglucosamine--peptide N-acetylglucosaminyltransferase 110 kDa subunit (OGT, Homo sapiens, UniProt O15294)
UniProt O15294, sequence (whole entry, looked up): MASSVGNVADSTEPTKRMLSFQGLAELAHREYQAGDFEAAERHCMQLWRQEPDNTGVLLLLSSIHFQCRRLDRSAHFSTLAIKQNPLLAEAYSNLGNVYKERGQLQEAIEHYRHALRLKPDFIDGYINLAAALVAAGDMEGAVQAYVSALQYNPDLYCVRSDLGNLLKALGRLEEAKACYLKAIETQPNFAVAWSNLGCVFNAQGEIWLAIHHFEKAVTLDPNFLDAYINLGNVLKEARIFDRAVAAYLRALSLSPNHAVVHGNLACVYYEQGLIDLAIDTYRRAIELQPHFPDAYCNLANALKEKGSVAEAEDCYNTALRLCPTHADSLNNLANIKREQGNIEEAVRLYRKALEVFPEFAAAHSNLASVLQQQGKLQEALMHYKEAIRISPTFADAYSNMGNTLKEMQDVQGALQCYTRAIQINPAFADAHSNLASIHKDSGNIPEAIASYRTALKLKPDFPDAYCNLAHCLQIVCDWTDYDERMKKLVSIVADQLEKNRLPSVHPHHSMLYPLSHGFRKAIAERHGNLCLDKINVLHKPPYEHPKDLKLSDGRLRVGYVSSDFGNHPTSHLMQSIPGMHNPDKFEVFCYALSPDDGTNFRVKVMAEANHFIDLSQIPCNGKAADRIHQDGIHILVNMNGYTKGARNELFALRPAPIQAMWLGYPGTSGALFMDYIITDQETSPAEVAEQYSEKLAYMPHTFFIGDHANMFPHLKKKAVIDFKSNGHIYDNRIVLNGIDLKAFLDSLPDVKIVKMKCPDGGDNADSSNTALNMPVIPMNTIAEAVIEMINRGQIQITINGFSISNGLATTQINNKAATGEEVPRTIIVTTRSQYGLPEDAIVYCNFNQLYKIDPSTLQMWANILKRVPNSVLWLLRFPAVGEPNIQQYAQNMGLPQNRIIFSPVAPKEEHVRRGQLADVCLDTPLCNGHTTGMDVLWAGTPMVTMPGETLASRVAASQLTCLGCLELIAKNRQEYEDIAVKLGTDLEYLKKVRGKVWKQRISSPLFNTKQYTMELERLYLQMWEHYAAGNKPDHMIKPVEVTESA
Under “enrichment fold change”, `FMPMYEIKYAKREDN` is recorded as 20.1.
Under “enrichment fold change”, `RTFFPMYEIVIGMT` is recorded as 2.65.
For `HLTHRHSYIKADHSL`, “enrichment fold change” read 8.08.
`HSYHHDTVITHNTHH` — result for “enrichment fold change”: 7.56.
Under “enrichment fold change”, `FSPYRHFQHSHSSTD` is recorded as 2.54.
Under “enrichment fold change”, `DAPWHKTHHMLPYSH` is recorded as 5.05.
For `HIYPRHQHSFEPVK`, “enrichment fold change” read 10.1.
Under “enrichment fold change”, `QHQHHQIITHYVDVA` is recorded as 2.69.

Mixed results
`CNC(=O)c1ccc(-c2cnn3ccc(C(=O)N(C)c4ccc(Cl)c(C(=O)OC)c4)cc23)cc1` gave an IC50 of over 30 µM (Prostaglandin G/H synthase 2 (PTGS2, Homo sapiens, UniProt P35354); cell-free assay, inhibitor).

A few entries again (block 2):
`V215A`: “oxyanion analog dissociation constant” 680 nM.
`T301G` — result for “oxyanion analog dissociation constant”: 544 nM.
Under “oxyanion analog dissociation constant”, `G156V` is recorded as 560 nM.
Under “oxyanion analog dissociation constant”, `Q510V` is recorded as 800 nM.
